Assay results gathered from unrelated publications.
Protocols differ between the studies behind these lines. “And” joins repeats or separate records; there may be more than shown. Numbers after ± are the reported error.
GLP1R: Glucagon-like peptide 1 receptor (GLP1R, Homo sapiens, UniProt P43220)
UniProt P08183, sequence (whole entry, looked up): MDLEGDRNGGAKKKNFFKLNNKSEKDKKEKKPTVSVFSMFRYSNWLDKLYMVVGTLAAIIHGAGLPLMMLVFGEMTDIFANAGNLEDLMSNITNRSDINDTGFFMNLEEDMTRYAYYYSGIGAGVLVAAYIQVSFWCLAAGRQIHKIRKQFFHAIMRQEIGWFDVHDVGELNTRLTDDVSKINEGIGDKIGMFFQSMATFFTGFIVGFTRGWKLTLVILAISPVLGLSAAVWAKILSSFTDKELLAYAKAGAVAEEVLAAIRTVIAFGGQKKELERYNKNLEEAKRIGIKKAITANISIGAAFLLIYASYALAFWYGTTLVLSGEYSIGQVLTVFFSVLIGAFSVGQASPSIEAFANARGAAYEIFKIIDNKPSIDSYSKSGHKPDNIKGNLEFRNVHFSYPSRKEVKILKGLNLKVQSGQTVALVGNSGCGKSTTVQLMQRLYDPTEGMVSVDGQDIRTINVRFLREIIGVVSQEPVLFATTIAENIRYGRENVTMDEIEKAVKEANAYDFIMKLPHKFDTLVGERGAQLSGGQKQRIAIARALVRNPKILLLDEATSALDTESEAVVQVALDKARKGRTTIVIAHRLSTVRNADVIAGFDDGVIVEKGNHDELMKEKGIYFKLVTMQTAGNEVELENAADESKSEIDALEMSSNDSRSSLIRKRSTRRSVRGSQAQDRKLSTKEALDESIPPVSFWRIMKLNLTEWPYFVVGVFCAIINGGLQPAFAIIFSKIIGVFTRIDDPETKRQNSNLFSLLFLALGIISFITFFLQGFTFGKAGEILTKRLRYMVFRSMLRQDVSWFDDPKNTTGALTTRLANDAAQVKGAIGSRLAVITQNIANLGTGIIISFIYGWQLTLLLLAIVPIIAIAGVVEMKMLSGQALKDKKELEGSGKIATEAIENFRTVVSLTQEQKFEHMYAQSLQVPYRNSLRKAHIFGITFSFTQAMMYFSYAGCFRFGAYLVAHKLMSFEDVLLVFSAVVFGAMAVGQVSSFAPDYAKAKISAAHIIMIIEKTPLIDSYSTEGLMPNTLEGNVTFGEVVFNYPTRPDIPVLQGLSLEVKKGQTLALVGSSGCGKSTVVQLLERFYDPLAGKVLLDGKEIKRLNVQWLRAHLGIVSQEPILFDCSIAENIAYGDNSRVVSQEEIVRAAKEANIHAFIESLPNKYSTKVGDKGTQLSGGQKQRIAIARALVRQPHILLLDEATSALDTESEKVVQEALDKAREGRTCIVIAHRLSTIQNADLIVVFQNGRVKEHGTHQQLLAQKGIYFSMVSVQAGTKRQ

Cn1nc2c(=O)n(C3CC3)cnc2c1[C@](O)(c1cnc(C(F)(F)F)c(Cl)c1)C(F)(F)F
EC50 (Saccharomyces cerevisiae; cell growth): 22 ± 9.2 µM

N#C[C@@]1(n2ccc(N)nc2=O)O[C@H](CO)[C@@H](O)[C@H]1O
EC50 (dengue virus; viral replication, cell-based): > 10 µM

NC(=O)c1nc(F)c[nH]c1=O
EC50 (Dengue virus; viral replication; BHK-21, DENV2; 96 h): 20 µM

Nc1nc(CCc2ccccc2)c(Br)c(=O)[nH]1
EC50 (parainfluenza-3 virus; virus-induced cytopathicity; Vero): > 100 µM

NC(=O)c1ncn([C@@H]2O[C@H](CO)[C@@H](O)[C@H]2O)n1
EC50 (Enterovirus B; HeLa, coxsackie virus B4): 250 µM

CN1CC[C@@H](c2c(O)cc(O)c3c(=O)cc(-c4ccc(C(F)(F)F)cc4Cl)oc23)[C@@H]1CO
adverse event incidence (measured: Anemia; relapsed or refractory haematological malignancies; oral, dose not given, all grades): 22.5% and 22%

CC(C)CC(=O)OC[C@H]1O[C@@](C#N)(c2ccc3c(N)ncnn23)[C@H](O)[C@@H]1O
Papp B to A (ABCB1 (Homo sapiens, UniProt P08183); Caco-2; 90 µM, added: zosuquidar 25 µM): 0.667 ×10⁻⁶ cm/s

COc1ccc(/C=C/c2nc(N)[nH]c(=O)c2Br)cc1OC
EC50 (parainfluenza-3 virus; virus-induced cytopathicity; Vero): > 100 µM

Nc1ncnc2c1ccn2[C@@]12C[C@H]1[C@H](CO)[C@@H](O)[C@H]2O
EC50 (Enterovirus A71; viral replication, visual; Vero 76, Tainan/4643/98): > 100 µM

CC[C@H](C)[C@H](NC(=O)[C@H](Cc1ccccc1)NC(=O)[C@H](CCC(=O)O)NC(=O)[C@H](CCCNC(=N)N)NC(=O)[C@H](C)NC(=O)[C@H](C)NC(=O)[C@H](CCC(N)=O)NC(=O)[C@H](CCC(=O)O)NC(=O)[C@H](CCC(=O)O)NC(=O)[C@H](CC(C)C)NC(=O)[C@H](Cc1ccc(O)cc1)NC(=O)[C@H](CO)NC(=O)[C@H](CO)NC(=O)[C@@H](NC(=O)[C@H](CC(=O)O)NC(=O)[C@H](CO)NC(=O)[C@@H](NC(=O)[C@H](Cc1ccccc1)NC(=O)[C@@H](NC(=O)CNC(=O)[C@H](CCC(=O)O)NC(=O)[C@H](C)NC(=O)CCc1cnc[nH]1)[C@@H](C)O)[C@@H](C)O)C(C)C)C(=O)N[C@@H](C)C(=O)N[C@@H](Cc1c[nH]c2ccccc12)C(=O)N[C@@H](CC(C)C)C(=O)N[C@H](C(=O)N[C@@H](CCCCNc1c(NCCCCCN(O)C(=O)CCC(=O)NCCCCCN(O)C(=O)CCC(=O)NCCCCCN(O)C(C)=O)c(=O)c1=O)C(=O)NCC(=O)N[C@@H](CCCNC(=N)N)C(=O)N[C@@H](CCCCNc1c(NCCCCCN(O)C(=O)CCC(=O)NCCCCCN(O)C(=O)CCC(=O)NCCCCCN(O)C(C)=O)c(=O)c1=O)C(=O)NCC(=O)NCC(=O)N[C@@H](CO)C(=O)N[C@@H](CCCCNC(=O)COCCOCCNC(=O)COCCOCCNC(=O)CC[C@H](NC(=O)CCCCCCCCCCCCCCCCC(=O)O)C(=O)O)C(=O)O)C(C)C
EC50 (GLP1R; cAMP reporter gene, agonist, CRE luciferase; BHK; without Zr, 1% HSA): 0.00031 µM

CNC(=O)[C@@]12C[C@@H]1[C@@H](n1cnc3c(NC)nc(C#Cc4ccc(Cl)s4)nc31)[C@H](O)[C@@H]2O
EC50 (Enterovirus A71; viral replication, visual cytopathic effect; Vero 76, Tainan/4643/98): > 100 µM

O=c1ccn([C@@H]2O[C@H](CO)[C@@H](O)[C@H]2O)c(=S)[nH]1
EC50 (Dengue virus; viral replication; BHK-21, DENV3): 2.1 µM

Cc1cc(C)c2sc(NC(=O)c3cc4ccccc4o3)nc2n1
EC50 (Usutu virus; cytopathic effect, neutral red uptake; Vero 76, TC-508): > 32 µM

NCCOCC(=O)NC1CCN(S(=O)(=O)c2cc(C(=O)Nc3cc(F)c(F)c(F)c3)ccc2F)CC1
EC50 (Hepatitis B virus; viral replication, measured: intracellular HBV DNA; HepG2.2.15; 6 days): > 10 µM

Nc1ncnc2c1ccn2[C@H]1[C@H](O)[C@H](O)[C@]2(CO)C[C@H]12
EC50 (Enterovirus A71; viral replication, visual; Vero 76, Tainan/4643/98): > 100 µM

CCCCc1nc(N)[nH]c(=O)c1Br
EC50 (parainfluenza-3 virus; virus-induced cytopathicity; Vero): > 100 µM

CNC(=O)[C@@]12C[C@@H]1[C@@H](n1cnc3c(NCc4cccc(Cl)c4)nc(C#Cc4ccc(F)c(F)c4)nc31)[C@H](O)[C@@H]2O
EC50 (Enterovirus A71; viral replication, visual; Vero 76, Tainan/4643/98): > 32 µM

CC[C@@](N)(c1cnc(C(F)(F)F)c(Cl)c1)c1c2ncn(C3CC3)c(=O)c2nn1C
EC50 (Saccharomyces cerevisiae; cell growth): 32 ± 0.71 µM

NC(=O)c1ncn([C@@H]2O[C@H](CO)[C@@H](O)[C@H]2O)n1
EC50 (parainfluenza-3 virus; virus-induced cytopathicity; Vero): 85 µM

COCC(=O)N1CCC[C@H](C(=O)NCc2nc(-c3ccccc3)cs2)C1
EC50 (Plasmodium falciparum; Dd2 β5 S28L resistant): 2.4 ± 0.58 µM

[H]/N=C(\N/C(=N/[H])Nc1ccc(Cl)cc1)NC(C)C
EC50 (Saccharomyces cerevisiae; cell growth): 3.8 µM

CCC(C)n1ncn(-c2ccc(N3CCN(c4ccc(OCC5COC(Cn6cncn6)(c6ccc(Cl)cc6Cl)O5)cc4)CC3)cc2)c1=O (stereo not drawn)
EC50 (coxsackievirus B3; viral replication, inhibitor; 72 h): 0.79 ± 0.06 µM

NC(=O)c1ncn([C@@H]2O[C@H](CO)[C@@H](O)[C@H]2O)n1
EC50 (Dengue virus; viral replication; BHK-21, DENV1; 120 h): 46 µM

N#Cc1c(Nc2ccc(F)cc2)n[nH]c1NS(=O)(=O)c1ccc2ccccc2c1
EC50 (Usutu virus; viral replication; Vero 76, TC-508): > 7.6 µM

C[C@H]1CN(c2n[nH]c3nc(N[C@H]4CC[C@H](NS(=O)(=O)CCC(F)(F)F)CC4)ncc23)CCO1
EC50 (Leishmania donovani; LdBOB promastigotes overexpressing CRK12 G572D): 0.0254 ± 0.0002 µM

Cc1ccc(N(c2ccc(NC(=O)CN(C)c3ccccc3N3CCCC3=O)cc2)C(C)C)cc1
EC50 (Plasmodium falciparum; parasite growth, SYBR Green; Dd2 CSC1 L800P mutant; 72 h): 3.24 µM

Cc1cc(Nc2ccc(S(F)(F)(F)(F)F)cc2)n2nc(C(C)(F)F)nc2n1
EC50 (Saccharomyces cerevisiae; cell growth): > 30 µM

CN1CCN(C(c2ccc(Cl)cc2)c2ccc(Cl)cc2)CC1
EC50 (dengue virus; viral replication, reporter virus particles; Huh-7.5.1; 48 h): 4.62 µM

CC[C@H](C)[C@H](NC(=O)[C@H](Cc1ccccc1)NC(=O)[C@H](CCC(=O)O)NC(=O)[C@H](CCCNC(=N)N)NC(=O)[C@H](C)NC(=O)[C@H](C)NC(=O)[C@H](CCC(N)=O)NC(=O)[C@H](CCC(=O)O)NC(=O)[C@H](CCC(=O)O)NC(=O)[C@H](CC(C)C)NC(=O)[C@H](Cc1ccc(O)cc1)NC(=O)[C@H](CO)NC(=O)[C@H](CO)NC(=O)[C@@H](NC(=O)[C@H](CC(=O)O)NC(=O)[C@H](CO)NC(=O)[C@@H](NC(=O)[C@H](Cc1ccccc1)NC(=O)[C@@H](NC(=O)CNC(=O)[C@H](CCC(=O)O)NC(=O)[C@H](C)NC(=O)CCc1cnc[nH]1)[C@@H](C)O)[C@@H](C)O)C(C)C)C(=O)N[C@@H](C)C(=O)N[C@@H](Cc1c[nH]c2ccccc12)C(=O)N[C@@H](CC(C)C)C(=O)N[C@H](C(=O)N[C@@H](CCCCNc1c(NCCCCCN(O)C(=O)CCC(=O)NCCCCCN(O)C(=O)CCC(=O)NCCCCCN(O)C(C)=O)c(=O)c1=O)C(=O)NCC(=O)N[C@@H](CCCNC(=N)N)C(=O)N[C@@H](CCCCNC(=O)COCCOCCNC(=O)COCCOCCNC(=O)CC[C@H](NC(=O)CCCCCCCCCCCCCCCCC(=O)O)C(=O)O)C(=O)NCC(=O)NCC(=O)N[C@@H](CO)C(=O)N[C@@H](CCCCNc1c(NCCCCCN(O)C(=O)CCC(=O)NCCCCCN(O)C(=O)CCC(=O)NCCCCCN(O)C(C)=O)c(=O)c1=O)C(=O)O)C(C)C
EC50 (GLP1R; cAMP reporter gene, agonist, CRE luciferase; BHK; without Zr, 0% HSA): 2.7e-05 µM

CC(C)(O)Cc1nc(N)[nH]c(=O)c1Br
EC50 (parainfluenza-3 virus; virus-induced cytopathicity; Vero): > 100 µM
